Experimental data collected from several papers.
Numbers after ± are the reported error. Where no end group is shown, it is not given here. [ ]: non-standard residue; d: D form.
abrB full length assumed: abrB full length assumed (Bacillus licheniformis, UniProt Q65PI4)
T1: NR1I2/RXRA (Homo sapiens); chain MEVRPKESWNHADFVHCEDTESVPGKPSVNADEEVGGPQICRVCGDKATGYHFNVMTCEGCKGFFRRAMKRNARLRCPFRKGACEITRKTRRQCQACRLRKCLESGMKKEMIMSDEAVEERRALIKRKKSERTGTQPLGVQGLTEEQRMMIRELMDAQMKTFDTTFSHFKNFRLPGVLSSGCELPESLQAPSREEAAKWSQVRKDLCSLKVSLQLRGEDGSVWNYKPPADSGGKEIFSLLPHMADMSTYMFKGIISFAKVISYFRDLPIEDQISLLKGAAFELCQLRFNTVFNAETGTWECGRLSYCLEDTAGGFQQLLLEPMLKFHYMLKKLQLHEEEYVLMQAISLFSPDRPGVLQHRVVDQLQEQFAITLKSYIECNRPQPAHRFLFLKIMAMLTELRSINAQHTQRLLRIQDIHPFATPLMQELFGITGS; chain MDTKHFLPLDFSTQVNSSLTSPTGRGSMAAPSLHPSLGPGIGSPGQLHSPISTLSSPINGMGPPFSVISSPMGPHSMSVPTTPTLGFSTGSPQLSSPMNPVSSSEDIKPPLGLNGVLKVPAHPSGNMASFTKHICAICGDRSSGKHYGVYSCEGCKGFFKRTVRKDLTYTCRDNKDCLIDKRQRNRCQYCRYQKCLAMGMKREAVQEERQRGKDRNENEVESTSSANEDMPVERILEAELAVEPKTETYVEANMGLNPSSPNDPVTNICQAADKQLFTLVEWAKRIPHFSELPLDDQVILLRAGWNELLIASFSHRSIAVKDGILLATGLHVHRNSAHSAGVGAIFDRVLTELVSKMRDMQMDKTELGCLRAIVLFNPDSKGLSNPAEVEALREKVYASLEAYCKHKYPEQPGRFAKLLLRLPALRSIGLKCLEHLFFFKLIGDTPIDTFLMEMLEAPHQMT
Chain of UniProt Q01130 (whole entry, looked up): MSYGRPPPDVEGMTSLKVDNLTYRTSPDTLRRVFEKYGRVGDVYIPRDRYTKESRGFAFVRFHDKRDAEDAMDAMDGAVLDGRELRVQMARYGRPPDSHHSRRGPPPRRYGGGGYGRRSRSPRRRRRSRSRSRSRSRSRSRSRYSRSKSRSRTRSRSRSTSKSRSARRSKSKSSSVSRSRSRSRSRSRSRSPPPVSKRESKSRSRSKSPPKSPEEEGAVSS
Chain of UniProt O60656 (whole entry, looked up): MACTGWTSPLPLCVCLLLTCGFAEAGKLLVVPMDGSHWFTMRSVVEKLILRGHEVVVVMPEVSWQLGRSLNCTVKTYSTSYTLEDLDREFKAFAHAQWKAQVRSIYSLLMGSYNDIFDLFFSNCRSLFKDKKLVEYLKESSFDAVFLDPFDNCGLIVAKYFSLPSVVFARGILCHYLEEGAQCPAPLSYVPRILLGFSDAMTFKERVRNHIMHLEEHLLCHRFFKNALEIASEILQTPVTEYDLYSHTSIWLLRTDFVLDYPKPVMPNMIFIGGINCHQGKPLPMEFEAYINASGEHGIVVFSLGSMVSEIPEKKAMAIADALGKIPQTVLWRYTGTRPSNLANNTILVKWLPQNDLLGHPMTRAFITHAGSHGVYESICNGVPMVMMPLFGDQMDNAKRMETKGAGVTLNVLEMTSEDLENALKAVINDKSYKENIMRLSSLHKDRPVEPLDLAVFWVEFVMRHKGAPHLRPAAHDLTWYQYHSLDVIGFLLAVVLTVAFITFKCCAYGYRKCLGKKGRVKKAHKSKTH
Chain of UniProt P55769 (whole entry, looked up): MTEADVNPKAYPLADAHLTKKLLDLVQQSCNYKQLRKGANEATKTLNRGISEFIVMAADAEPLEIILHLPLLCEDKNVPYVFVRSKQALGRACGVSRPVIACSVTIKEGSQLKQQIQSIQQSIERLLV
Chain of UniProt Q980W9 (whole entry, looked up): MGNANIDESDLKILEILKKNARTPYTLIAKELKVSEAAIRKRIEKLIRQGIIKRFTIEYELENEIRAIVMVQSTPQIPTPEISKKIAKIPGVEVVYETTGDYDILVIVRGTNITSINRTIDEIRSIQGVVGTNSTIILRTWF

`V[Aib]IA (Aib2; Aib = CC(C)(N)C(=O)O)` has a cell viability of 70% (PC-12; protection from Aβ1–42 toxicity, MTT; concentration not given, 6 h, Aβ to peptide ratio 1:1, added: Aβ1–42 2 µM; baseline: untreated cells).
With `GAGUUGAGUUGAGUUGAGUUGAGUUGAGUUGAGUUGAGUUGAGUUGAGUUGAGUU (ssRNA; single strand)` the Kd was 8 ± 0.1 nM (mtrB full length assumed T30C (Bacillus subtilis, UniProt P19466); filter binding; added: L-tryptophan 1 mM).
`TCAGCTGAATGAACTTGCTGACCCTCT (dsDNA)` gave a Ki of 82.8 ± 3.6 nM (T1, NR1I2/RXRA (Homo sapiens); fluorescence anisotropy competition; double-stranded DNA, one strand shown; added: DR3 FAM).
`UGT1A9 (Homo sapiens, UniProt O60656)` has a Vmax/Km of 3730 µL/min/mg (COc1ccc2c(=O)c(-c3ccccc3)coc2c1O; steady-state kinetics; pH 7.4, 37 °C).
`TCAGCTGAATGAACTTGCTGACCCTCTGCT (dsDNA)` has a Ki of 88.3 ± 4.2 nM (T1, NR1I2/RXRA (Homo sapiens); fluorescence anisotropy competition; double-stranded DNA, one strand shown; added: DR3 FAM).
For `GGGAUCGUCAGGUGGGAUAAUCCUUACCUGUUCCUCCUCCGGAGGGCAGAUUAGAACAUGAUGAUUGGAGAUGCAUGAAACGUGAUUAACGUCUCUGCGUAAUCAGGACUUGCAACACCCUGAUUGCUCCUGUCUGAUU (structured RNA)`, binding read “binds” (SNU13 1-128 (Homo sapiens, UniProt P55769); competition).
The brain concentration of `Insulin human` is reported as 92.7 ± 15.3 pg/mg tissue (rat, substantia nigra/VTA; intranasal, 20 µg per nostril, 60 min).
Under binding, `GGACATATTTTTGTTGCCTACGGAATGAAAGACTCGCATCGGTCATCAAATACGCTCCTGATGTGAAAATTTTAAATCTATCTTACGATTACGGTAAACTAGGCGGTCTGACCATTTTACAGAACGTAGTGTTCTGCTCAAGACTTCACACAGTCCGAAAATTCTTGGGCCGGTGATCTGTCTGTCGCCTGCAAATATGGGGTTTTCAAAGGATTTTAACAGAGGACTGGTCATTATGATAACCGCTATGAAAACCTTAT (dsDNA)` is recorded as “binds” (abrB full length assumed; EMSA; double-stranded DNA, one strand shown).
For `UUUCAGCUCCGGUCACGCUC (ssRNA)`, the Ki was 113 nM (SRSF2 1-115 (Homo sapiens, UniProt Q01130); NanoBRET competition; apparent, not purified).
With `V[dA]IA (D-Ala2)` the cell viability was 70% (PC-12; protection from Aβ1–42 toxicity, MTT; concentration not given, 6 h, Aβ to peptide ratio 1:5, added: Aβ1–42 2 µM; baseline: untreated cells).
For `AACTTGCTGACCCTCTGCTTTC (dsDNA)`, the Ki was 144 ± 6 nM (T1, NR1I2/RXRA (Homo sapiens); fluorescence anisotropy competition; double-stranded DNA, one strand shown; added: DR3 FAM).
`UUUCAGCUCCGGUCACGCUC (ssRNA; m5C at position 10)` gave a Ki of 84.4 nM (SRSF2 full length assumed (Homo sapiens, UniProt Q01130); NanoBRET competition; HEK293; apparent, permeabilized cells, not purified).
`CATCGGTTTTGCCATTATTATGTTTAATCTTATTTTTGTAAACCTTGTCATCGCCGGGCTTCACTCTTATGCATGATCCGTGCGGTGCAGGAAGGTCCGGGCTTTTCACCGGGCCTTCCGCAGCTTTTTGTTTTAAATTGAGGAAAGGCATTCTTGGCTTGGCTTACAATCGCTTTTCTAATAAAATGAATGTAAGAAGATTCAAATCAGGAGGTTTACGATGGAACAGACGAAAGAGAC (dsDNA)`: binding “binds” (abrB full length assumed; EMSA; double-stranded DNA, one strand shown).
Under binding, `GATTGCAGAGATACTACAAAGGTATTACAAAAAAATAGGCATAGAGAATGTGAATCAGTTGATACTAACTACTATAAAATAGTTCGTATGTCGAACCTTTCTTTACCGAATTCATTATATATCCTTTACCTTAATTCTCACTTGTATGATAAAAGTAGGTATTTTAGATTCGACGTTAAGAGAAGGAG (dsDNA)` is recorded as “binds” (lysM 1-142 (Sulfolobus solfataricus, UniProt Q980W9); EMSA; double-stranded DNA, one strand shown).
